Experimental data collected from several papers.
Several values in a cell are separate wells, animals, samples, runs or records. Numbers after ± are the reported error.
Sequence of UniProt Q9NPD5 (whole entry, unmodified, looked up): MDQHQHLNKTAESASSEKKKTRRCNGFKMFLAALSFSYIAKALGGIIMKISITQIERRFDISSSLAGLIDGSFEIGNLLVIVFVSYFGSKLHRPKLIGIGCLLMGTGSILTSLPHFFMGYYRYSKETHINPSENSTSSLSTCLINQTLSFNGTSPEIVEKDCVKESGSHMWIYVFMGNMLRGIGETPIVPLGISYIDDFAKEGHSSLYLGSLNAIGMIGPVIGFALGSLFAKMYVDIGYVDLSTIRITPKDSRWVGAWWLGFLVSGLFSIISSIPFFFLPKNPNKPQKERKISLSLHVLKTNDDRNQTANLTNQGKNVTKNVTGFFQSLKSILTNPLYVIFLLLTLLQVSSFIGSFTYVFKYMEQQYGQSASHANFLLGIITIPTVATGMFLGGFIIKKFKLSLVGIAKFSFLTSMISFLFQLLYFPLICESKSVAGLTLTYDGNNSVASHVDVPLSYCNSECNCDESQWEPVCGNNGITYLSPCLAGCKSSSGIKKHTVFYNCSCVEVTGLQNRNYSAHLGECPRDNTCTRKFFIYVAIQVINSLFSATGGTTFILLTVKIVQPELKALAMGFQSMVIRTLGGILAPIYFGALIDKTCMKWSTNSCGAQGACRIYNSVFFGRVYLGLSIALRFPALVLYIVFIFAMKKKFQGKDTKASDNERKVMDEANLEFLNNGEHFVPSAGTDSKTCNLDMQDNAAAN
Sequence of UniProt P08684 (whole entry, looked up): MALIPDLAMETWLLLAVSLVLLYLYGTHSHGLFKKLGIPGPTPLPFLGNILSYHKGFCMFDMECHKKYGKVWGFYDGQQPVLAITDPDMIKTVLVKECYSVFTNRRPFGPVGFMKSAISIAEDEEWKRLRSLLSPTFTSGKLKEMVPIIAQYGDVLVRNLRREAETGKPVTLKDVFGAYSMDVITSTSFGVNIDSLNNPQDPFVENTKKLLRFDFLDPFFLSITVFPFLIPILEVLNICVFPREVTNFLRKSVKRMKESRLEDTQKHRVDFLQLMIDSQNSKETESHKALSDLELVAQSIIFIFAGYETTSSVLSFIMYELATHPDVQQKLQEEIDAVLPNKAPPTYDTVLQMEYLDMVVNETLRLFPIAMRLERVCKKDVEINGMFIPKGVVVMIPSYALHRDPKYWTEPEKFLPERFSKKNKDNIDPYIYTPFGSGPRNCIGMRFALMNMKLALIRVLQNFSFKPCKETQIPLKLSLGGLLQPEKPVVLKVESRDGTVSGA

For `Cc1c(-c2ccc(N3CCc4cccc(C(=O)Nc5nc6ccccc6s5)c4C3)nc2C(=O)O)cnn1CC12CC3(C)CC(C)(C1)CC(OCCNCC[C@H](O)CO)(C3)C2`, “cardiac output change” read -14% (anaesthetised male beagle dogs; intravenous infusion, 0.3 mg/kg/min, 15 min; baseline: vehicle).
With `CCCC(=O)OCSc1ccccc1C(=O)NCCn1ccc(=O)c2cc([N+](=O)[O-])ccc21` the TC50 was over 100 µM (CEM-SS; cell viability, XTT; RPMI with 10% FBS; 6 days).
`N#Cc1ccc2c(c1)[C@H]1CCCN(C(=O)c3ccc4[nH]cnc4c3)[C@H]1C2`: “median ACTH level” 5.9 pmol/L (human; 80 mg, end of trial).
`CCCC(=O)OCSc1ccccc1C(=O)NCC(=O)NCCn1ccc(=O)c2cc3c(cc21)OCO3` has a TC50 of over 100 µM (CEM-SS; cell viability, XTT; RPMI with 10% FBS; 6 days).
`COc1cccc(-c2cccc(Nc3nccc(NC(C)C)n3)c2)c1` has an efflux ratio of 2.14 (P-glycoprotein (human MDR1); MDR1-MDCKII; 10 µM, 1 h, pH 7.4; baseline: B-A over A-B).
`CCCC(=O)OCSc1ccccc1C(=O)NCCn1cc(C(=O)NCc2cc(C)ccn2)c(=O)c2cc3c(cc21)OCO3` has a TC50 of over 100 µM (CEM-SS; cell viability, XTT; RPMI with 10% FBS; 6 days).
`CC(C)c1nc(N(C)S(C)(=O)=O)nc(-c2ccc(F)cc2)c1/C=C/[C@@H](O)C[C@@H](O)CC(=O)O` gave a Km of 23.7 µM (SLCO1B3 (Homo sapiens, UniProt Q9NPD5, S112A); substrate, uptake; HEK293-A stably expressing SLCO1B3; 2 min).
`CCCC(=O)OCSc1ccccc1C(=O)NCCn1cc(C(=O)NCc2cccc(C)n2)c(=O)c2cc3c(cc21)OC(F)(F)O3` has a TC50 of over 100 µM (human PBMCs, PHA-P-stimulated; XTT; 7 days, BCF01 line).
With `CC[C@H](C)C(=O)N1CCC(NC(=O)Nc2ccc(OC(F)(F)F)c(F)c2)CC1` the percent recovery was 81% (Caco-2; Caco-2 permeability; 10 µM, 60 min, pH 7.4 apical, 7.4 basolateral, replicate 2; basolateral to apical).
`COc1cccc2c1C(=O)c1c(O)c3c(c(O)c1C2=O)C[C@@](O)(C(=O)CO)C[C@@H]3O[C@H]1C[C@H](N)[C@H](O)[C@H](C)O1` has an inhibition of 40 to 50% (SLCO1B3 (Homo sapiens, UniProt Q9NPD5, M233I/S112A); uptake, inhibitor, radiolabelled substrate uptake; cells expressing SLCO1B3; 100 µM, 2 min, with: 1 µM [3H]estradiol glucuronide).
Under “mean revertant colonies”, `Cc1cc(N)c2c(OCC(C)(C)C(=O)NC(C)C)cccc2n1` is recorded as 87 colonies/plate (Salmonella typhimurium; reverse mutation, plate incorporation; TA100; 10 µg/plate, with rat liver S9).
`CC(C)C[C@H](NC(=O)C[C@H](O)[C@H](CC(C)C)NC(=O)[C@H](Cc1c[nH]cn1)NC(=O)CNC(=O)[C@@H](NC(=O)[C@H](C)NC(=O)[C@H](Cc1c[nH]c2ccccc12)NC(=O)[C@H](CCC(N)=O)NC(=O)[C@@H](Cc1ccccc1)NC(=O)COCCOCCNC(=O)CCC(C(=O)O)N1CCN(CC(=O)O)CCN(CC(=O)O)CCN(CC(=O)O)CC1)C(C)C)C(N)=O` (some centres unmarked) [lutetium-177 labelled] gave a tissue uptake of 1.1 ± 0.3 %ID/g (BALB/c nu/nu mice, female, liver; 50 pmol, 1 h, with: PBS co-injection).
`CCCC(=O)OCSc1ccccc1C(=O)NCCn1cc(C(=O)NCc2ncccc2C)c(=O)c2cc3c(cc21)OCO3` has a TC50 of over 100 µM (CEM-SS; cell viability, XTT; RPMI with 10% FBS; 6 days).
`CC[C@H](CO)N(CCN(N=O)[C@H](CC)CO)N=O` — result for “revertant colonies per plate”: 15 ± 7 (Salmonella typhimurium; mutagenicity, Ames plate incorporation; TA1535; 50 µg/plate, without S9, methanol).
The CL/F of `CC[C@H]1[C@@H](O)[C@@H]2[C@H](CC[C@]3(C)[C@@H]([C@H](C)CCNC(=O)NS(=O)(=O)c4ccc(C(C)(C)C)cc4)CC[C@@H]23)[C@@]2(C)CC[C@@H](O)C[C@@H]12` is reported as 12.8 L/h (Cytochrome P450 3A4 (CYP3A4, Homo sapiens, UniProt P08684); human, plasma; mean, alone).
`CNCCOC12CC3(C)CC(C)(CC(Cn4ncc(-c5ccc(N6CCc7cccc(C(=O)Nc8nc9ccccc9s8)c7C6)nc5C(=O)O)c4C)(C3)C1)C2` gave a plasma concentration of 0 ng/mL (anaesthetised male beagle dogs; intravenous bolus, 0.03 mg/kg, 210 min).
`COc1ccc(-c2ccc(CNC(=O)c3cc(C(=O)NC(C)C)ccc3Cl)cc2)cn1` has a viability of about 50% (Plasmodium falciparum; infected erythrocytes, 3D7A; 10 x IC50, 72 h, serum-containing medium).
`C=C(OP(=O)(O)O)C(=O)O`: “log2 fold change” -0.184 (binding, MIDAS equilibrium dialysis LC-MS; A2AR-BRIL thermostabilized; concentration not given; baseline: no-protein control).
For `CCCC(=O)OCSc1ccccc1C(=O)NCCNC(=O)Cn1ccc(=O)c2cc3c(cc21)OCO3`, the TC50 was over 100 µM (CEM-SS; cell viability, XTT; RPMI with 10% FBS; 6 days).
`COc1cc(/C=C/C=C2\SC(=S)NC2=O)cc(OC)c1O` gave a viability of 0.985 and 0.991 (HeLa; CellTiter-Glo; 1.25 µM, 24 h, unit not given; baseline: untreated).
With `COc1cccc(-c2cccc(Nc3nccc(NC4CCCCC4)n3)c2)c1` the Papp (B-A) was 0.094 ± 0.042 ×10⁻⁶ cm/s (P-glycoprotein (human MDR1); MDR1-MDCKII; 10 µM, 1 h, pH 7.4).
`CNC(=O)c1ccc(-c2cnc3ncc(Cc4ccc5ncccc5c4)n3n2)cc1F` — result for “abdominal distension incidence”: 5% (cancer patients; oral, 600 mg twice daily, all grades RP2D expansion).
Under “log2 fold change”, `Nc1ncnc2c1ncn2[C@@H]1O[C@H](COP(=O)(O)OS(=O)(=O)O)[C@@H](OP(=O)(O)O)[C@H]1O` is recorded as -0.417 (binding, MIDAS equilibrium dialysis LC-MS; A2AR-BRIL thermostabilized; concentration not given; baseline: no-protein control).
`CC(C)Nc1ccnc(Nc2cccc(-c3cccnc3)c2)n1` has an efflux ratio of 0.77 (P-glycoprotein (human MDR1); MDR1-MDCKII; 10 µM, 1 h, pH 7.4; baseline: B-A over A-B).
`COc1cc2ncnc(Nc3ccc(Oc4ccccc4)cc3C)c2cc1OC.O=C(O)C(F)(F)F` gave a viability fraction of 0.806 (MeWo (NF1); resazurin; 1 µM, 72 h, with: trametinib 0 nM).
`O=C(Nc1nc2cccc(-c3ccc(CN4CCS(=O)(=O)CC4)cc3)n2n1)C1CC1` — result for “patients with dizziness”: 0% (rheumatoid arthritis patients; oral, 200 mg once daily, 4 weeks, regardless of relatedness).
`CCCC(=O)OCSc1ccccc1C(=O)NCCn1cc(C(=O)NCc2ccc(C)cn2)c(=O)c2cc3c(cc21)OCO3` gave a TC50 of over 100 µM (CEM-SS; cell viability, XTT; RPMI with 10% FBS; 6 days).
For `CN(C(=O)C(C)(C)c1cc(C(F)(F)F)cc(C(F)(F)F)c1)c1cnc(N2C[C@H]3COCCN3C[C@H]2CO)cc1-c1ccc(F)cc1[14CH3]`, “fraction metabolized via UGT” read 5 to 12% (cryopreserved human hepatocytes; 5 to 0.5 µM, with: cobicistat and CYP3cide).
`Cc1cn([C@H]2C[C@H](N=[N+]=[N-])[C@@H](CO)O2)c(=O)[nH]c1=O` has a TC50 of over 0.5 µM (CEM-SS; cell viability, XTT; with: glutathione 2 mM).
For `CC(C)n1c(/C=C/C(O)CC(O)CC(=O)O)c(-c2ccc(F)cc2)c2ccccc21` (centres unmarked), the Km was 4.34 µM (SLCO1B3 (Homo sapiens, UniProt Q9NPD5, M233I); substrate, uptake; HEK293-A stably expressing SLCO1B3; 2 min).
`Cc1cc(Nc2ccc(S(F)(F)(F)(F)F)cc2)n2nc(C(C)(F)F)nc2n1`: “patients with blood or lymphatic AEs” 20% (Plasmodium vivax; human Plasmodium vivax malaria patients; oral, 400 mg).
`CCc1cc(C(=O)NC)c2nccc(N3CCc4c(cc(Cn5ccnc5)cc4-c4cn(C)nc4C(F)(F)F)C3=O)c2c1` — result for “reticulocyte percentage change”: -15.6% (Sprague Dawley rats; oral, 100 mg/kg once daily, 7 days; baseline: vehicle).
